Measurements collected from several papers.
Lines come from different studies, so protocols differ. Numbers after ± are the reported error.

| Structure (SMILES) | assay | system | setting | how to read | endpoint | value |
| --- | --- | --- | --- | --- | --- | --- |
| CCCC[C@H](NC(=O)CCCCCCCNC(=O)c1ccc(NN)nc1)C(=O)N[C@H]1CC(=O)NCCCC[C@@H](C(N)=O)NC(=O)[C@H](Cc2c[nH]c3ccccc23)NC(=O)[C@H](CCCNC(=N)N)NC(=O)[C@@H](Cc2ccccc2)NC(=O)[C@H](Cc2c[nH]cn2)NC1=O [technetium-99m labelled] | – | C57 mouse, B16/F1 melanoma, heart | intravenous, 0.5 h | – | uptake | 1.75 ± 0.31 %ID/g |
| CC(C)C[C@H](NC(=O)C[C@H](O)[C@H](CC(C)C)NC(=O)[C@H](Cc1c[nH]cn1)NC(=O)CNC(=O)[C@@H](NC(=O)[C@H](C)NC(=O)[C@H](Cc1c[nH]c2ccccc12)NC(=O)[C@H](CCC(N)=O)NC(=O)[C@@H](Cc1ccccc1)NC(=O)c1ccc(NC(=O)CNC(=O)CCC(C(=O)O)N2CCN(CC(=O)O)CCN(CC(=O)O)CC2)cc1)C(C)C)C(N)=O (stereo partly shown) [fluorine-18 labelled] | – | mouse serum | 1 h, 37 °C | – | intact probe | > 90% |
| CSCC[C@H](NC(=O)[C@H](CC(C)C)NC(=O)[C@H](Cc1c[nH]cn1)NC(=O)CNC(=O)[C@@H](NC(=O)[C@H](C)NC(=O)[C@H](Cc1c[nH]c2ccccc12)NC(=O)[C@H](CCC(N)=O)NC(=O)CCCCCCCNC(=O)CCC(=O)Nc1ccc(CNC23CNCCNCC(N)(CNCCNC2)CNCCNC3)cc1)C(C)C)C(N)=O [copper-64 labelled] | – | mice, PC-3 xenograft | dose not given, 24 h | baseline: level at 1 h | blood radioactivity remaining | 8% |
| N=C(N)NCCC[C@@H]1NC(=O)[C@H](CCCCNC(=O)CCOCCOCCOCCOCCNC(=O)CN2CCN(CC(=O)O)CCN(CC(=O)O)CCN(CC(=O)O)CC2)NC(=O)[C@@H](Cc2ccccc2)NC(=O)[C@H](CC(=O)O)NC(=O)CNC1=O [indium-111 labelled] | – | female athymic nude mice, muscle | intravenous, 3 µCi, 24 h, U-87 MG glioma xenograft | – | tissue uptake | 0.19 ± 0.04 %ID/g |
| C[C@@H](O)[C@@H]1NC(=O)[C@H](CCCCN)NC(=O)[C@@H](Cc2c[nH]c3ccccc23)NC(=O)[C@H](Cc2ccc(O)cc2)NC(=O)[C@@H](NC(=O)[C@@H](Cc2ccccc2)NC(=O)c2ccc(C[C@H]3CN(CC(=O)O)CCN(CC(=O)O)CCN(CC(=O)O)CCN3CC(=O)O)cc2)CSSC[C@@H](C(=O)N[C@H](CO)[C@@H](C)O)NC1=O [gallium-67 labelled] | radio-TLC | mouse plasma | 3 h, 37 °C, 67Ga-labelled | – | remaining intact | 97.4 ± 0.4% |
| N=C(N)NCCC[C@@H]1NC(=O)[C@H](CCCCNC(=O)CNC(=O)CNC(=O)CNC(=O)CC[C@H](NC(=O)CCOCCOCCOCCOCCNC(=O)CC[C@H](NC(=O)CN2CCN(CC(=O)O)CCN(CC(=O)O)CCN(CC(=O)O)CC2)C(=O)NCCOCCOCCOCCOCCC(=O)N[C@@H](CCC(=O)NCC(=O)NCC(=O)NCC(=O)NCCCC[C@@H]2NC(=O)[C@@H](Cc3ccccc3)NC(=O)[C@H](CC(=O)O)NC(=O)CNC(=O)[C@H](CCCNC(=N)N)NC2=O)C(=O)NCC(=O)NCC(=O)NCC(=O)NCCCC[C@@H]2NC(=O)[C@@H](Cc3ccccc3)NC(=O)[C@H](CC(=O)O)NC(=O)CNC(=O)[C@H](CCCNC(=N)N)NC2=O)C(=O)NCC(=O)NCC(=O)NCC(=O)NCCCC[C@@H]2NC(=O)[C@@H](Cc3ccccc3)NC(=O)[C@H](CC(=O)O)NC(=O)CNC(=O)[C@H](CCCNC(=N)N)NC2=O)NC(=O)[C@@H](Cc2ccccc2)NC(=O)[C@H](CC(=O)O)NC(=O)CNC1=O [indium-111 labelled] | – | female athymic nude mice, eyes | intravenous, 3 µCi, 4 h, U-87 MG glioma xenograft | – | tissue uptake | 0.66 ± 0.08 %ID/g |
| CCCC[C@H](NC(=O)CNC(=O)CNC(=O)c1ccc(NN)nc1)C(=O)N[C@H]1CC(=O)NCCCC[C@@H](C(N)=O)NC(=O)[C@H](Cc2c[nH]c3ccccc23)NC(=O)[C@H](CCCNC(=N)N)NC(=O)[C@@H](Cc2ccccc2)NC(=O)[C@H](Cc2c[nH]cn2)NC1=O [technetium-99m labelled] | – | C57 mouse, B16/F1 melanoma-bearing, heart | intravenous, 24 h | – | tissue uptake | 0.02 ± 0.02 %ID/g |
| CCCC[C@H](NC(=O)CNC(=O)[C@H](CO)NC(=O)CNC(=O)c1ccc(NN)nc1)C(=O)N[C@H]1CC(=O)NCCCC[C@@H](C(N)=O)NC(=O)[C@H](Cc2c[nH]c3ccccc23)NC(=O)[C@H](CCCNC(=N)N)NC(=O)[C@@H](Cc2ccccc2)NC(=O)[C@H](Cc2c[nH]cn2)NC1=O [technetium-99m labelled] | – | C57 mouse, B16/F1 melanoma, kidneys | intravenous, 2 h | – | uptake | 3.9 ± 1.01 %ID/g |
| N=C(N)NCCC[C@@H]1NC(=O)[C@H](CCCCNC(=O)CCOCCOCCOCCOCCNC(=O)CC[C@H](NC(=O)CCOCCOCCOCCOCCNC(=O)CC[C@H](NC(=O)CN2CCN(CC(=O)O)CCN(CC(=O)O)CCN(CC(=O)O)CC2)C(=O)NCCOCCOCCOCCOCCC(=O)N[C@@H](CCC(=O)NCCOCCOCCOCCOCCC(=O)NCCCC[C@@H]2NC(=O)[C@@H](Cc3ccccc3)NC(=O)[C@H](CC(=O)O)NC(=O)CNC(=O)[C@H](CCCNC(=N)N)NC2=O)C(=O)NCCOCCOCCOCCOCCC(=O)NCCCC[C@@H]2NC(=O)[C@@H](Cc3ccccc3)NC(=O)[C@H](CC(=O)O)NC(=O)CNC(=O)[C@H](CCCNC(=N)N)NC2=O)C(=O)NCCOCCOCCOCCOCCC(=O)NCCCC[C@@H]2NC(=O)[C@@H](Cc3ccccc3)NC(=O)[C@H](CC(=O)O)NC(=O)CNC(=O)[C@H](CCCNC(=N)N)NC2=O)NC(=O)[C@@H](Cc2ccccc2)NC(=O)[C@H](CC(=O)O)NC(=O)CNC1=O [indium-111 labelled] | – | athymic nude mice, female, U-87 MG glioma xenograft, tumour and lungs | intravenous, 1 h | baseline: tumour over lungs | tumour to tissue ratio | 3.13 ± 1.09 |
| CCCC[C@@H](NC(=O)[C@H](Cc1c[nH]c2ccccc12)NC(=O)[C@@H](N)CSC1CC(=O)N(CCCCCC(=O)NN=C(CO)[C@]2(O)Cc3c(O)c4c(c(O)c3[C@@H](O[C@H]3C[C@H](N)[C@H](O)[C@H](C)O3)C2)C(=O)c2c(OC)cccc2C4=O)C1=O)C(=O)N[C@@H](CCC(=O)O)C(=O)N[C@@H](C)C(=O)N[C@@H](C)C(=O)N[C@@H](Cc1ccc(O)cc1)C(=O)N[C@@H](CCC(N)=O)C(=O)N[C@H](CCCNC(=N)N)C(=O)N[C@@H](Cc1ccccc1)C(=O)N[C@@H](CC(C)C)C(N)=O (stereo partly shown) | – | 25% human serum | 100 µM, 37 °C | – | half-life | 0.25 days |
| CCCC[C@H](NC(=O)CNC(=O)CNC(=O)CNC(=O)c1ccc(NN)nc1)C(=O)N[C@H]1CC(=O)NCCCC[C@@H](C(N)=O)NC(=O)[C@H](Cc2c[nH]c3ccccc23)NC(=O)[C@H](CCCNC(=N)N)NC(=O)[C@@H](Cc2ccccc2)NC(=O)[C@H](Cc2c[nH]cn2)NC1=O [technetium-99m labelled] | – | C57 mouse, B16/F1 melanoma | 2 h | baseline: tumour over lung | uptake ratio | 54.4 |
| N=C(N)NCCC[C@@H]1NC(=O)[C@H](CCCCn2cc(CNC(=O)CN3CCN(CC(=O)O)CCN(CC(=O)O)CCN(CC(=O)O)CC3)nn2)NC(=O)[C@@H](Cc2ccccc2)NC(=O)[C@H](CC(=O)O)NC(=O)CNC1=O | – | rat serum | 48 h, 37 °C, 64Cu-labeled | – | intact fraction | 76% |
| N=C(N)NCCC[C@@H]1NC(=O)[C@H](CCCCNC(=O)CC[C@H](NC(=O)CCOCCOCCOCCOCCNC(=O)CN2CCN(CC(=O)O)CCN(CC(=O)O)CCN(CC(=O)O)CC2)C(=O)NCCCC[C@@H]2NC(=O)[C@@H](Cc3ccccc3)NC(=O)[C@H](CC(=O)O)NC(=O)CNC(=O)[C@H](CCCNC(=N)N)NC2=O)NC(=O)[C@@H](Cc2ccccc2)NC(=O)[C@H](CC(=O)O)NC(=O)CNC1=O [indium-111 labelled] | – | female athymic nude mice, brain | intravenous, 3 µCi, 24 h, U-87 MG glioma xenograft | – | tissue uptake | 0.06 %ID/g |
| CC(C)C[C@@H]1NC(=O)[C@H](C(C)C)NC(=O)[C@H](CO)NC(=O)CNC(=O)CNC(=O)[C@H](CCCNC(=N)N)NC(=O)[C@@H]2CCCN2C(=O)[C@@H](NC(=O)CC[C@H](NC(=O)c2ccc(N(C)Cc3cnc4nc(N)nc(N)c4n3)cc2)C(=O)O)C(C)(C)SSC[C@@H](C(=O)O)NC(=O)CNC(=O)[C@H]([C@@H](C)O)NC(=O)[C@H](C(C)C)NC1=O | – | acetate buffer | 100 µM, pH 5.0, 70 °C | – | half-life | 22.2 days |
| CC1(C)C(/C=C/C=C/C=C2/N(CCCCCC(=O)NCCCC[C@@H]3NC(=O)[C@@H](Cc4ccc(O)cc4)NC(=O)[C@H](CC(=O)O)NC(=O)CNC(=O)[C@H](CCCNC(=N)N)NC3=O)c3ccccc3C2(C)C)=[N+](CCCCn2nnc3c2-c2ccccc2CN(C(=O)CCC(=O)NCCNC(=O)CN(CCN(CC(=O)O)CC(=O)O)CCN(CC(=O)O)CC(=O)O)c2ccccc2-3)c2ccc(S(=O)(=O)[O-])cc21 | shake-flask | 1-octanol/PBS | pH 7.4, 99mTc-labelled tracer | – | log P | -2.55 ± 0.1 |
| CSCC[C@H](NC(=O)[C@H](CC(C)C)NC(=O)[C@H](Cc1c[nH]cn1)NC(=O)CNC(=O)[C@@H](NC(=O)[C@H](C)NC(=O)[C@H](Cc1c[nH]c2ccccc12)NC(=O)[C@H](CCC(N)=O)NC(=O)CCCCCNC(=O)CNC(=O)CNC(=O)CNC(=O)CSC(C)=O)C(C)C)C(N)=O [technetium-99m labelled] | – | nude mouse, PC-3 xenograft, tumor | 90 min | – | tissue uptake | 0.29 ± 0.05 %ID/g |

For quick reference, copied from above:
| Structure (SMILES) | assay | system | setting | how to read | endpoint | value |
| --- | --- | --- | --- | --- | --- | --- |
| N=C(N)NCCC[C@@H]1NC(=O)[C@H](CCCCNC(=O)CCOCCOCCOCCOCCNC(=O)CC[C@H](NC(=O)CCOCCOCCOCCOCCNC(=O)CC[C@H](NC(=O)CN2CCN(CC(=O)O)CCN(CC(=O)O)CCN(CC(=O)O)CC2)C(=O)NCCOCCOCCOCCOCCC(=O)N[C@@H](CCC(=O)NCCOCCOCCOCCOCCC(=O)NCCCC[C@@H]2NC(=O)[C@@H](Cc3ccccc3)NC(=O)[C@H](CC(=O)O)NC(=O)CNC(=O)[C@H](CCCNC(=N)N)NC2=O)C(=O)NCCOCCOCCOCCOCCC(=O)NCCCC[C@@H]2NC(=O)[C@@H](Cc3ccccc3)NC(=O)[C@H](CC(=O)O)NC(=O)CNC(=O)[C@H](CCCNC(=N)N)NC2=O)C(=O)NCCOCCOCCOCCOCCC(=O)NCCCC[C@@H]2NC(=O)[C@@H](Cc3ccccc3)NC(=O)[C@H](CC(=O)O)NC(=O)CNC(=O)[C@H](CCCNC(=N)N)NC2=O)NC(=O)[C@@H](Cc2ccccc2)NC(=O)[C@H](CC(=O)O)NC(=O)CNC1=O [indium-111 labelled] | – | athymic nude mice, female, U-87 MG glioma xenograft, tumour and lungs | intravenous, 1 h | baseline: tumour over lungs | tumour to tissue ratio | 3.13 ± 1.09 |
